Measurements from different studies.
A part holds a random share of what one study measured.
Chain of UniProt Q7KZI7 (whole entry, looked up): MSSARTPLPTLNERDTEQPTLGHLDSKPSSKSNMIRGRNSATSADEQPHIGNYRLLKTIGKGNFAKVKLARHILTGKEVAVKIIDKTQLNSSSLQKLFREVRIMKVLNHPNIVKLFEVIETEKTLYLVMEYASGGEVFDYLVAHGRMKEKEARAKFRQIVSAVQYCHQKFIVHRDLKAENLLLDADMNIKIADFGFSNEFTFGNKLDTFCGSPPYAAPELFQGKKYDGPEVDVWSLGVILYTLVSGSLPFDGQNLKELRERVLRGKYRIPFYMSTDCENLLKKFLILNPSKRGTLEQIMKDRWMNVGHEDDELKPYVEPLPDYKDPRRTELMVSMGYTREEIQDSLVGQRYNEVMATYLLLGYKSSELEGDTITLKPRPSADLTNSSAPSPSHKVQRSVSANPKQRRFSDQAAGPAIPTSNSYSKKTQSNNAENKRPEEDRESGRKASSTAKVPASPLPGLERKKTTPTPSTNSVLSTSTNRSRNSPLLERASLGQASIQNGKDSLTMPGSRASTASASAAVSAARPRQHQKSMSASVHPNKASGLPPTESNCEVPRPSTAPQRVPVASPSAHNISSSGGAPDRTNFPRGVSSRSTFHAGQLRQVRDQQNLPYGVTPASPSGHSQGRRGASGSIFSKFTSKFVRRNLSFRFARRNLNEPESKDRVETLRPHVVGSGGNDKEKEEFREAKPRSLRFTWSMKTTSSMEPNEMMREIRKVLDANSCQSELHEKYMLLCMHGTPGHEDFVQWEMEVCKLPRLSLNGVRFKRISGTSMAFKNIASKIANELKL

Study 1 — method: RNA Bind-n-Seq; molecule type: RNA; medium: in vitro; concentration: 365 nM; relative to: no-protein control; direction: higher = stronger binding
Target: RNA binding protein fox-1 homolog 2, RRM domain, GST-SBP tag (RBFOX2, Homo sapiens, UniProt O43251-10, residues 100-194)
Setting: natural RNA segment, single round, ends assumed
Constant ends, left off below: GGGAGUUCUACAGUCCGACGAUC … UGGAAUUCUCGGGUGCCAA
Residues (chain): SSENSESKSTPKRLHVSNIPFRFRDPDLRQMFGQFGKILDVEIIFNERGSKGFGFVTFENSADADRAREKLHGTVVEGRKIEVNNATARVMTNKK
| Oligonucleotide | RBNS enrichment (R) |
| --- | --- |
| GUCUCCACCAUUGUGGAUGGAGGGGGUCUCUGUGCUAGGAGACUCUAUAGACUGCCUCCAGCCGCCCUCCAGUGCUGUGGAGAGACUGUCCCCAGCCUGAGGGACUCUCC | 0.378 |
| UUUUAAUACAAAGUACAAGCUCUACUUUUAUAACGUGUACUACAAGUUUCUUUAAAAGUAUUGUUGUAUUUCAGCUGAACUCUUGUAUCUGCAGUCUUUUGUUAUUUCUG | 0.397 |
| GUGUCUUGCCUUUUAAUCAUGAACAGUUACAUGAUUUAUAAUUUCACUGAUUGAGAUUACUUUGUAAGUAGCUGUUCAGAAGAAUAAAAUAUGACUGUUUUAGGGACUAG | 0.321 |
| CUAUGGAUUAGUUUGAACUGUCAAAUCCUUGCAUACUUCUGUGACACCCCUGCCCAUUUUCUGUCUUUAAUUAACCAAGGUGUUAGGUGUGACUGUCACAACUGUUAUGU | 0.764 |
| CAUGAAUUGGGUAAGCUGGUUUGUUUGACUAGGAAACGGUUCCACAGAGUAUUUGCCACAAGAGGAGAGUAUCCCUCCAGCAAAUAAAAGCAAGUUAGAACGGGCUGGAU | 1.58 |
| UUGAGGAUUUAUGUAUUAGGCCACUUACUUGGUUGGCAAGUGCAGGAACUCAGUUAAAAUGCAGUUGAAGAAUGUCAUCUCCCGAAUUGCUGUCACUUUGGCGAGGGAGU | 0.932 |
| AAAGUAUUAUCAAGUGUCAAGAUCAGCAAGUGUCCUUAAGUCAAACAGGUUUUUUUUGUUGUUGUUUUUGCUUUGUUUCCUUUUUUAGAAAGUUCUAGAAAAUAGGAAAA | 1.07 |
| AUAGCAUUUACAGCCCCGGGCUGUACCCAGACCAGGCUACCUGGGCAGCACAAAGGGCAAGGAGAGCCCCAACCCCAGUUGCUCCAAGCUCCCCAAUCACUUAGUCUUCA | 0.955 |

Study 2 — target: Sox, HMG box (Pigoraptor chileana); method: Spec-seq; molecule type: double-stranded DNA, one strand shown; medium: in vitro; concentration: not given; setting: whole probe, mean of replicates; relative to: not given; direction: lower = stronger binding; constant ends, left off below: GAGTCGTCTCGTCAGCAC … CCGTAGAGCACTCAGGTC
Construct (chain): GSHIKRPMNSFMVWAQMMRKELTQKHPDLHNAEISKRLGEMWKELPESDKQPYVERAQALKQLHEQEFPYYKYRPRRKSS
| Oligonucleotide | relative binding energy |
| --- | --- |
| CATCGCA | 0.633 ln ratio |
| TGATGTT | -0.0968 ln ratio |
| CATAAGT | -0.291 ln ratio |
| CATAACG | -0.157 ln ratio |
| CATATTG | 0.191 ln ratio |
| ATTCGTT | 0.33 ln ratio |
| CATAGAT | -0.32 ln ratio |
| CATGACC | 0.613 ln ratio |

Study 3 — method: RNAcompete; molecule type: RNA; medium: in vitro; concentration: 20 nM; setting: 7-mer, probes averaged, single round; relative to: mean of 7-mers; direction: higher = stronger binding
Target: PABPC1L2, full length, GST fusion (mouse, UniProt A0ABA7IW68)
Target sequence (chain): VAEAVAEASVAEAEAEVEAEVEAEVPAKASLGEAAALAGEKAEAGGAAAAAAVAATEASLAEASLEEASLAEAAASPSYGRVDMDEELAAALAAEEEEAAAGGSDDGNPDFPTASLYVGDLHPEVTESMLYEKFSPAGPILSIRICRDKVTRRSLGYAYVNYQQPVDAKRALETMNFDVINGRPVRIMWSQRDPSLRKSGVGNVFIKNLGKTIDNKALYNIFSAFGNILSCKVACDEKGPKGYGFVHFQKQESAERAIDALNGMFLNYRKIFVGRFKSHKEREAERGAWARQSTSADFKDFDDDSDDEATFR
| Oligonucleotide | 7-mer Z-score |
| --- | --- |
| GUUUAUC | -0.325 |
| AGAGGCU | 0.0551 |
| AAAGAGC | 2.15 |
| UAUUGAG | -0.012 |
| AGGAUCU | -0.161 |
| AUAACGG | 0.189 |
| CUUAGUC | -0.434 |
| AUCAUUA | -0.135 |

Further values, each from its own experiment
| SMILES | target | test | conditions | measurement | result |
| --- | --- | --- | --- | --- | --- |
| COc1ccc2c(O[C@@H]3C[C@H]4C(=O)N[C@]5(C(=O)O)CC5/C=C\CCCCC[C@H](NC(=O)OC5CCCC5)C(=O)N4C3)cc(-c3csc(NC(=O)C(C)C)n3)nc2c1C (stereo partly shown) | Serine/threonine-protein kinase MARK2 (MARK2, Homo sapiens, UniProt Q7KZI7) | cell-free assay, competition with immobilised ligand | 1 µM | remaining binding | 100% |
